Published values pooled from the literature.
Lines come from different studies, so protocols differ. “And” joins repeats or separate records; there may be more than shown.
Target: MAP kinase-interacting serine/threonine-protein kinase 2 (MKNK2, Homo sapiens, UniProt Q9HBH9)

`O=C(Cc1ccc(OCc2ccccc2)cc1)NC1(C(=O)O)CCN(C(=O)c2ccc(-c3cccc(Cl)c3)cc2)CC1`: “activity vs control” 101% (enzyme activity, inhibitor; 10 µM).
With `COc1c(Cl)cccc1Nc1c(-c2ccncc2C#C[C@@]2(C)CCCN2C(=O)/C=C/CN(C)C)[nH]c2c1C(=O)NCC2` the remaining binding was 71% (binding, competition with immobilised ligand; 3 µM).
The inhibition of `C=CC(=O)Nc1cccc(-c2cnc3[nH]cc(C(=O)NC(C)(C)C)c3n2)c1` is reported as 9% and 1% (kinase activity; 0.1 µM).
`CC(=O)N1c2ccc(-c3ccc(CNC(=O)c4cn5cc(-c6cnc(N)nc6)nc(N6CCOCC6)c5n4)cc3)cc2CC[C@@H]1C` gave a remaining binding of 89% (KINOMEscan; 10 µM).
`CN1CCN(Cc2ccc(-c3ccc(CO[C@H]4CCC[C@@H]4NC(=O)c4cc(-c5cnn(C)c5)cnc4N)cc3)cc2)CC1` has an inhibition of 4% (enzyme activity, inhibitor; 0.1 µM).
The inhibition of `C=CC(=O)N1Cc2nc(-c3cc(-c4cc(Cl)cnc4Cl)c(F)cc3F)n(-c3ccncn3)c2C1` is reported as 6.7% (cell-free assay, inhibitor; 1 µM).
`COc1c(OCCCN2CCOCC2)ccc2c1N=C(NC(=O)c1cnc(N)nc1)N1CCN=C21` gave a remaining activity of 106% (kinase activity, inhibitor; 1 µM; baseline: untreated control).
`Nc1ncc(-c2cc(-c3cnn(CC(F)(F)F)c3)ncc2F)nc1C(=O)NC1CNCC(F)C1` (stereo not drawn) gave a remaining activity of 20.8% (enzyme activity; 1 µM; baseline: DMSO control).
`Nc1nc(Nc2ccccc2)sc1C(=O)c1ccccc1` gave a remaining activity of 70% (enzyme activity, inhibitor; 10 µM).
With `CC(C)=CC1OC(C)(C)C2C=C3C(=O)C(Cl)=CC(O)C3C3C(O)C4OC4C(=O)C132` (stereo not drawn) the remaining binding was 82% (cell-free assay, competition with immobilised ligand; 10 µM).
`Cc1cnc2nc1Nc1cccc(c1)COC/C=C/COCc1cc(ccc1OCCN1CCOCC1)N2` has a remaining binding of 76% (binding; 0.1 µM).
With `Cc1cccc(-c2ccc3nc(NC(=O)C4CCOCC4)nn3c2)c1` the remaining activity was 79% (enzyme activity, Dundee kinase panel; 10 µM).
For `CNC1C[S+]2CC[S+]3CC[S+](C1)[Ru-4]321([N]=C=S)[n]2c3ccc(OC)cc3c3c4c(c5cc(F)c[n+]1c5c32)C(=O)NC4=O` (stereo not drawn), the remaining binding was 89% (KinomeScan; 0.1 µM; baseline: untreated).
`C=CC(=O)N1CCc2ccc(-n3c(=O)ccc4cnc5ccc(-c6cnn(C)c6)cc5c43)cc21` gave a remaining binding of 74% (KINOMEscan; 1 µM; baseline: DMSO control).
For `Cc1cccc(O[C@H]2CCC[C@@H](C(C)CNCc3ccncc3)C2)c1` (relative stereo), the inhibition was 0% (enzyme activity, inhibitor; 1 µM).

For quick reference, copied from above:
`CN1CCN(Cc2ccc(-c3ccc(CO[C@H]4CCC[C@@H]4NC(=O)c4cc(-c5cnn(C)c5)cnc4N)cc3)cc2)CC1` has an inhibition of 4% (enzyme activity, inhibitor; 0.1 µM).
`Nc1ncc(-c2cc(-c3cnn(CC(F)(F)F)c3)ncc2F)nc1C(=O)NC1CNCC(F)C1` (stereo not drawn) gave a remaining activity of 20.8% (enzyme activity; 1 µM; baseline: DMSO control).
